# Assay results gathered from unrelated publications.
# A part holds a random share of what one study measured.

# Block 1
# Target: Histone acetyltransferase KAT6A, winged helix 2, GST fusion (KAT6A, Homo sapiens, UniProt Q92794, residues 85-181)
# Technique: protein binding microarray
# Molecule type: double-stranded DNA, one strand shown
# Medium: in vitro
# Tested at: not given
# Setting: 8-mer, flanks averaged, mean of 2 arrays, mostly near background
# Relative to: not given
# Direction: higher = stronger binding
# Target sequence (chain): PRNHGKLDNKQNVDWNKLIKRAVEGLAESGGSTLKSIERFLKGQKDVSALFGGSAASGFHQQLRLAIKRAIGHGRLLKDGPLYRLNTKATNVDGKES
Strand,E-score
AAATTAGC,-0.0102
CCGGGCAG,0.0725
AAGGAAAG,-0.0758
TACTAAGA,0.0994
GCCCTACC,0.0898
AATCCTGC,0.0384
CACCAGGC,0.2
CGGTTTGC,0.183
GCGTAGGA,-0.0659
ACATCCAT,-0.0454
GAATGATA,0.0113
CCCCATTC,-0.163
TGTTACAA,0.103
TAGCAGGA,0.0578
ACTTCTAC,-0.208
ACCCGCTA,0.168
TATTATGA,-0.144
GACCCCTA,-0.212
ACACGGCA,0.0439
ACATCCTC,-0.177
CACGGCCA,-0.034
CCTGTCCG,0.106
GAAAATTC,-0.0556
ATCCTGCG,0.174
TAAACGGA,0.0249

# Block 2
# Target: PABPC1L2, full length, GST fusion (mouse, UniProt A0ABA7IW68)
# Technique: RNAcompete
# Molecule type: RNA
# Medium: in vitro
# Tested at: 20 nM
# Setting: 7-mer, probes averaged, single round
# Relative to: mean of 7-mers
# Direction: higher = stronger binding
# Construct (chain): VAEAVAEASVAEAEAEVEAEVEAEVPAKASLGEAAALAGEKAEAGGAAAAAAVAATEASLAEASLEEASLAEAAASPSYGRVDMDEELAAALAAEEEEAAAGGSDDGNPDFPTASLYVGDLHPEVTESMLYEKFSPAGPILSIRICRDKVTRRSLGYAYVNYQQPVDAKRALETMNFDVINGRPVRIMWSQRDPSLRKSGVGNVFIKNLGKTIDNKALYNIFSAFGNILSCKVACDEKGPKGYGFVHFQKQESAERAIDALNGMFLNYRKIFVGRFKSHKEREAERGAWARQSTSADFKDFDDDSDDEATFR
Strand,7-mer Z-score
AGCACCC,-0.141
GCAGUGG,0.0334
ACUACCU,-0.204
CGGGCCU,-0.142
AGGCCCG,-0.0573
ACUCUCC,-0.387
GUGAAUG,-0.137
AUGACUA,-0.0192
UUCGGCC,-0.336
CCACAGG,-0.197
AGUCCAG,-0.182
UGCUGCG,-0.132
UGUGCUC,-0.362
CGUAACG,-0.17
UAAUUUG,-0.151
CUUCACG,-0.315
UCACUCU,-0.438
CGUAGAA,0.476
ACGGUAA,0.108
UUAUCGC,-0.387
GACUGCG,-0.0156
GAUUUUA,-0.164
GCUGGCG,-0.222
UGUAAUA,-0.112

# Block 3
# Target: RNA binding protein fox-1 homolog 2, RRM domain, GST-SBP tag (RBFOX2, Homo sapiens, UniProt O43251-10, residues 100-194)
# Technique: RNA Bind-n-Seq
# Molecule type: RNA
# Medium: in vitro
# Tested at: 365 nM
# Setting: natural RNA segment, single round, ends assumed
# Relative to: no-protein control
# Direction: higher = stronger binding
# Residues (chain): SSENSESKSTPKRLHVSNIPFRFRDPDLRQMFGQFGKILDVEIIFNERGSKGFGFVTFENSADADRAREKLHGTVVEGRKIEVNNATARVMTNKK
Strand,RBNS enrichment (R)
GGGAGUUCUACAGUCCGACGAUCGACAAUUUGUUCAAGGAAGUUCAUCUAAAAUAAUCUGGAGGCCUUGAAAAUGAUCCCUCUAAAAUGCUGUUGAGCUUGUGUUCAGUGUAGCAGGAGGAUCUGAACUUUUCUGGAAUUCUCGGGUGCCAA,0.869
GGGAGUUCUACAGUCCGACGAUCCAGAAACUUCUCUGACACCCAUUCACCAGGGUGCUGAGAUAGGAGAAAGUGCUCAUUUAUAAUGUGUAUUCUGUGCAGCUGUUCUCAGACAAGACCGGAUCUUGUCAUCUUGGAAUUCUCGGGUGCCAA,0.233
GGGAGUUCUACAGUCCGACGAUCAUUUUUGGCGGCCCGUAAGUAGGCUGGCUAGUCCAGGAUACUGUGGAAUAGCCACCUCUUGACCAGUCAUGCCUGUGUGCAUGGACUCAGGGCCACGGCCUUGGCCUGGGUGGAAUUCUCGGGUGCCAA,0.392
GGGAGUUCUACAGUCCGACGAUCCUUUGAGAAAAAAGAAAUAGAAACUUACUUGAUGCAGAAUGGAUAUUUAUAUUUCUGCUUGCACCAUUUCCAUAGCAGCUGACAAAGGCAAAAUCAUGAAAUAGAAUCAUUGGAAUUCUCGGGUGCCAA,0.516
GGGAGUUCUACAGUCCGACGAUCGCCAGGCAGUAUAUCCAGUUAGAACUUCCGGCUUUUGCAUUAGCUUGUCUGAUGCUCAUGCCCCACUCAGAGAAAAGACACCAGCAAAUUAAGGAUUUUCUGGGUUCCUGUGGAAUUCUCGGGUGCCAA,0.335
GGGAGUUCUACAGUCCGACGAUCUAGGAAGAUGCACAUUGAUGUGGGGUUUUGAUGUGUCUGAUUUUGACUACUCAAGCUCUGUUUACAGAAGAAAAUUGAAUGGCGAGGGUGUGGCCAUAUGAACUGACUAGUGGAAUUCUCGGGUGCCAA,1.19
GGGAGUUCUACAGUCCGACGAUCCUGCAAAGCCCUGGAAGCCUGUGACUUAAAAGUCCGGAGAGGGUGGCAAUUGCUUCCUCGAAGACAUGGUGUCACCUUGAAUAGGAAUCUCAGGCAAUCGAGACAGAGAGUGGAAUUCUCGGGUGCCAA,0.253
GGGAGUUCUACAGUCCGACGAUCAGAGGAAAAAAAAGCAACCUUCAAACUAAUUCUCCAUGGGGGCUCUCCAUGUUACCCUCCACUCCUUGGCCCAAACCUCUGAUGGAGAUAGACAUUGUUGGAGAAGUGGGUGGAAUUCUCGGGUGCCAA,0.752
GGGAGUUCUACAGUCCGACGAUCUUGCUCGCAGCUGGGGUGUGGGGCCAAGUGGCAGCCAGGGCCAAGACAAGCAGCAUCUGUCCCCCCCAGAGCCAUCUAGCUACUGACACUGCCCCCAGCUUUGCUUCUCAUGGAAUUCUCGGGUGCCAA,0.98
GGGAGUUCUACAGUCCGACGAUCUGGAGCCAGCCUGCUGAGAAGCGUGGUGCAGCUGGGUCUGGGACUUCACUAGAGCUUACUCUGGAGCACCUAUUUUCUGUGCACAUGGGAGUGCUCCACUCCCUAGCAGAUGGAAUUCUCGGGUGCCAA,0.133
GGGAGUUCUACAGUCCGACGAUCAUGUUCCCAAGGCCCCACUUUCAAGAAUCAGACAGCAGGAAGCCAUAGAUGCUGGCUGGGUUCCAGGUUAUGGGGAGAAGAAAUACAGUCAAUAAAAGGUUUUUGUAUAAUGGAAUUCUCGGGUGCCAA,0.617
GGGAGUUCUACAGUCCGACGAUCUAAGCUGUUUCUAAGUGUUUAAAUUUGAAAAGCAUCAUGUUCUCAUGAUUUAUGGGAAUGAAGCAAGUACUGAAAUCAAAUUAAAUACUCCCUGGGUCCUGGGUCAGUUUUGGAAUUCUCGGGUGCCAA,0.508

# Block 4
# Target: RING finger protein unkempt homolog, zinc fingers 1-6, GST-SBP tag (UNK, Homo sapiens, UniProt Q9C0B0, residues 30-357)
# Technique: RNA Bind-n-Seq
# Molecule type: RNA
# Medium: in vitro
# Tested at: not given
# Setting: RNA with constant flanks, ends assumed
# Relative to: input RNA pool
# Direction: higher = stronger binding
# Residues (chain): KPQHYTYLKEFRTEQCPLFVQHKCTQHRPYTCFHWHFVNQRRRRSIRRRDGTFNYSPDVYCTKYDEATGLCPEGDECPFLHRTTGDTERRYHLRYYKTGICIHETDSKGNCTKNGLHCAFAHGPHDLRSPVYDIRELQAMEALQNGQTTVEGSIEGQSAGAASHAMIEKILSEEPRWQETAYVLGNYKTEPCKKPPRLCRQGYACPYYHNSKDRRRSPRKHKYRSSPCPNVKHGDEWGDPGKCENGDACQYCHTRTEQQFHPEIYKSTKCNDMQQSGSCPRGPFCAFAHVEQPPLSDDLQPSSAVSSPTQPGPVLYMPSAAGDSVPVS
Strand,bound/input enrichment [ratio]
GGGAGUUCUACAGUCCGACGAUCUUUGGAGGGAGUAGAACAGGACCCCUCUCUGGAAAGAAGUUUGGAAAUCCUGGGGAGAAACCCGUUAAAAAGAAGUGGAAUCUUGAUGAGCUGCCCAAAUUUGAGAAGAAUUUUUAUCAACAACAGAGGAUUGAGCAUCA,0.274
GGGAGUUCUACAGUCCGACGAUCUUUUUUUUAAUUUUUUUUAAAAUUUCAUAUCUUUUCAUUCCACUGUGUAAAGUGCCCGGAAAUUUCCAAUUUGAAAUUUUGCUUUUUCUGGCAUUGGCAAAAAACCAGUAGAAGUGAAUUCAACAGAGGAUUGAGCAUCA,0.405
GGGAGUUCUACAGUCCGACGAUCAACGUUGACGUGUUAUAGAUAAGCCUUGUCAUUCUGUAUCAAAAAUCUGUUGUCGUUUUCCCGUAACUUCAAAUUCCAUUACUCCAAAUGGCAUGGUUUUCCGGUUUGUAACCAUAACUACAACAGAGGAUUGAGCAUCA,0.128
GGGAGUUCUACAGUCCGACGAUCGCCAGCAAGAACGAGGAGGACGCGGGAAAAAUGUUCGUUGGUGGCCUGAGCUGGGAUACCCGCAAAAAAGAUUUAAAAGACUAUUUUACUAAAUUUGGAGAGGUCGUUGACUGUACAAUACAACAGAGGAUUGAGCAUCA,0.966
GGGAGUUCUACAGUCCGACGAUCAUCAUCGAGGCAUUUUAUGGAGGCUCCCAUCGACAGCUGGUAGAGCUGCUCCGAGAAGAAUCCGAUGACUGCGUGUUGUACACUCUUCCUGCAAAGAAAUGGCACUGGAGAGCACGCACACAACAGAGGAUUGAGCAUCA,0.0907
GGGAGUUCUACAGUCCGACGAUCAGAGUGGUUGUGGAACCUGUUGGCCCAGUUGGUUUCAAGCCAGAGACAUUCAGAAAGUUUUCCGCUCUAUAUUUGCAUGGUGCUGCGUGAGCGGAGGACCCCUCUGAAUCCUGAAACCCCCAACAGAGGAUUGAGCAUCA,0.109
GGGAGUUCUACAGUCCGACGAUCUCCUGUGCUGUGGGAAGGGGCAGGACGGCUGGUGGGGGGGGCUGAUGUGGCACCUUGCAAACCGAAUAUCUAAGUCCACAAUCUUUGUAAGAAAAGUAUGUUUAUGUUUCAAUCUGAAUCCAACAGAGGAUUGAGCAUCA,0.19
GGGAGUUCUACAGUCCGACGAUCUCAGGGGGCACGCUGAGUGGCGGCAUUCUCUCCAGUGGCAAGGGAAAAUAUAGCAGGUCCGAAGUUCAAGCCGAUGUCCAAAAGGAAAUUUUCCCCAAAGACACAGCCAGUCUUGGUGCACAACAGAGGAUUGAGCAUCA,0.208
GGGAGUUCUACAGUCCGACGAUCAUAUCCAUAUAUACCUUCCAGUGUUCACACAGGAUGGGGUUCCCAGCCUUGCAUGGUUGCCCGGUUGGGGGCAGGCCCAGUCUGCUCAAGGCCCACGAUGAUCUUGGUGCUCCAGGCAGGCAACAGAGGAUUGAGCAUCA,0.131
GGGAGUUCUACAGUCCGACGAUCAAGGAUGCUUUCGAUAAAGGUUCACUUUUUGGAGGCUCUGUAAAACUGGCUCUUGCAAGCUCCGGAUAUGAAAAGAGCUGUGUGUUGUUCAAUUGUGCAGCCUUAGCUAGCCAAAUUGCACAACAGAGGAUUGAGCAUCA,0.221
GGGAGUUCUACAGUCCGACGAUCCCAUUUGAUCCUAGAGUUCUCUUCUCUGCUGGUCAUGAUGGAAAUGUGAUAGUGUGGGAUCCCGCAAGAGGAGUCAAAGUUCGAUCUUAUUUCAAUAUGAUUGAAGGACAAGGACAUGGUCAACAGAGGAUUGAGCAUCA,0.21

# A few entries again (block 2):
Strand,7-mer Z-score
CCACAGG,-0.197
AGUCCAG,-0.182
UGCUGCG,-0.132
UGUGCUC,-0.362
CGUAACG,-0.17
UAAUUUG,-0.151
CUUCACG,-0.315
UCACUCU,-0.438
CGUAGAA,0.476
